Results pooled from the literature.
Each numbered part is a random draw from the data of one study; scales do not carry over between parts. Several values in a cell are separate wells, animals, samples, runs or records.
Chain of UniProt P48729 (whole entry, looked up): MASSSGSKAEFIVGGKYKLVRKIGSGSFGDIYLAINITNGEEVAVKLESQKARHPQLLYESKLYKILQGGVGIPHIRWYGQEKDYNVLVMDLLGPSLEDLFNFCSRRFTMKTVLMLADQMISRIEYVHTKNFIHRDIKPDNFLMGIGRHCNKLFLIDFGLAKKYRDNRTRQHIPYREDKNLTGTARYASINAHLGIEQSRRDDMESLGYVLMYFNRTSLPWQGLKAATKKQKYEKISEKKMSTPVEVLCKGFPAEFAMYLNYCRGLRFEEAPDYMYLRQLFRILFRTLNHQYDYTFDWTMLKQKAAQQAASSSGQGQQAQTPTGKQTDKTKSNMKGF
Chain of UniProt Q9UKT9 (whole entry, looked up): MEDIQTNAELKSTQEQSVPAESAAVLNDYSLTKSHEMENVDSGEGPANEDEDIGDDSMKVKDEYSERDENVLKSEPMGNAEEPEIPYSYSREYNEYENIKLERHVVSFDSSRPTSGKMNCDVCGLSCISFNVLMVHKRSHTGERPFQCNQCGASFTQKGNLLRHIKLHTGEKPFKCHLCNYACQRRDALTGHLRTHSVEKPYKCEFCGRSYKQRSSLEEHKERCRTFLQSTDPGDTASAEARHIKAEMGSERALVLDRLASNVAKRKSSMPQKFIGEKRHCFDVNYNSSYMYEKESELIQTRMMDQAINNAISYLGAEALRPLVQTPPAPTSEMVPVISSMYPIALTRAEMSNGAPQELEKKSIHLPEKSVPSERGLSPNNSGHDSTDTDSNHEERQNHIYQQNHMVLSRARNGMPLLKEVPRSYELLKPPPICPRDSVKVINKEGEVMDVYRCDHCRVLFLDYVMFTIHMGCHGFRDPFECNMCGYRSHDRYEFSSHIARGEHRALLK
Chain of UniProt Q13131 (whole entry, looked up): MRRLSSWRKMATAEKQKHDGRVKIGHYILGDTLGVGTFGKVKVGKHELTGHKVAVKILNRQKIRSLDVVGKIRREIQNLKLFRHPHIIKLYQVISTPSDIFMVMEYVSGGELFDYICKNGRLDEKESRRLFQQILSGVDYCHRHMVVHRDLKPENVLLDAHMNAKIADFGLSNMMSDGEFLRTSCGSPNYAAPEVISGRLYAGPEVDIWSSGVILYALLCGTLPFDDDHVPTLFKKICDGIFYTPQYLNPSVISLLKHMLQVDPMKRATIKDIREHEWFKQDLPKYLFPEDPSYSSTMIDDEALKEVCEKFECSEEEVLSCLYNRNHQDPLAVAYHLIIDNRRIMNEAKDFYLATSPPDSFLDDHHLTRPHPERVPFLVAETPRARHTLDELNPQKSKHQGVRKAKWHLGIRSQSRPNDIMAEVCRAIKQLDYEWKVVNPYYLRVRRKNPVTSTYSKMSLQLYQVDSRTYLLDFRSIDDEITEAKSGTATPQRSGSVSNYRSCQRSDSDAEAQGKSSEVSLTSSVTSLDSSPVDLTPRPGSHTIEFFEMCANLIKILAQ
Chain of UniProt P07332 (whole entry, looked up): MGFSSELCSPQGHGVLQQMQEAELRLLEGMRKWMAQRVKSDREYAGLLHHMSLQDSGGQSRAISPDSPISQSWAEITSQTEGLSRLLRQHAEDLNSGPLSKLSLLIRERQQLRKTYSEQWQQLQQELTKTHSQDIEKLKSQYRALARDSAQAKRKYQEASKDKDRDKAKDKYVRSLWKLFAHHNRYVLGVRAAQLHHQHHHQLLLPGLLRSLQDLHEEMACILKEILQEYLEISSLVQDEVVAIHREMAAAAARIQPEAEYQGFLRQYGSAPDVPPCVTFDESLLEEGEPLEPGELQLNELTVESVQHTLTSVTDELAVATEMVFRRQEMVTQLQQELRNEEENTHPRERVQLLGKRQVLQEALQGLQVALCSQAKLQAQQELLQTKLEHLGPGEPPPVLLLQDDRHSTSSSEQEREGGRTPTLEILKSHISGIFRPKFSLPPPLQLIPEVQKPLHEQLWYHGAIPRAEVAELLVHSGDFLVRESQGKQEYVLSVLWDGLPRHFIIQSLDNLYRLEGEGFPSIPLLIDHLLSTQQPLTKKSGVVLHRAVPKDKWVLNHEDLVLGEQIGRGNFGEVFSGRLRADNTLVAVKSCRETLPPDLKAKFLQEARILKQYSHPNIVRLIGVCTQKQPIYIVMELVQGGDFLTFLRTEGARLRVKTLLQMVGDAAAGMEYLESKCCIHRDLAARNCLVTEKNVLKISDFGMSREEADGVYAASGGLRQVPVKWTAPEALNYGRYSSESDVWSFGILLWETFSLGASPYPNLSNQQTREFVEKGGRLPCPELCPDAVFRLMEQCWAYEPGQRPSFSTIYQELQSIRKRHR
Chain of UniProt P31749 (whole entry, looked up): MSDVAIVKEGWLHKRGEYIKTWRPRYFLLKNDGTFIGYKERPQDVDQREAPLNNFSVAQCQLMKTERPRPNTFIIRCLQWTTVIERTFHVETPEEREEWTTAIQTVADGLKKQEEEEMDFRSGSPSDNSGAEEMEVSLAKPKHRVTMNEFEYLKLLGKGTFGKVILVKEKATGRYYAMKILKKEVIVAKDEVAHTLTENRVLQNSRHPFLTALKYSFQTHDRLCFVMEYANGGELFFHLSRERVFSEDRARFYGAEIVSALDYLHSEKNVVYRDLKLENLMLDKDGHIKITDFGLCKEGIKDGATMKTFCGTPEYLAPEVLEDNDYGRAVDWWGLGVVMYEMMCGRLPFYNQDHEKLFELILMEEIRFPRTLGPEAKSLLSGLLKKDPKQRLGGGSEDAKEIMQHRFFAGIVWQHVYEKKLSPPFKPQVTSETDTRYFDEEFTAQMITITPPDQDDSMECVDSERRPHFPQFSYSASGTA
Chain of UniProt P11802 (whole entry, looked up): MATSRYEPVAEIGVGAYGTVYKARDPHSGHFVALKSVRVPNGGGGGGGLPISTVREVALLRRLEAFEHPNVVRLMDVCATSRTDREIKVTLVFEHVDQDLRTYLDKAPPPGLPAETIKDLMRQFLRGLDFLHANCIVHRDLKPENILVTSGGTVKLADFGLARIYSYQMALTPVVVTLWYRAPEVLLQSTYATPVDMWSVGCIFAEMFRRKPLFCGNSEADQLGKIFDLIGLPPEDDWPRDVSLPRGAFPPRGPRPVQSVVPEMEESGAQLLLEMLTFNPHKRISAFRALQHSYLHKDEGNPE

Block 1 — action: degrader; technique: HiBiT
SMILES: O=C1CCC(N2Cc3cc(C4CCN(Cc5ccccc5)CC4)ccc3C2=O)C(=O)N1 (stereo not shown)
IKZF4: Zinc finger protein Eos (IKZF4, Homo sapiens, UniProt Q9H2S9)
Chain of UniProt Q9H2S9 (whole entry, looked up): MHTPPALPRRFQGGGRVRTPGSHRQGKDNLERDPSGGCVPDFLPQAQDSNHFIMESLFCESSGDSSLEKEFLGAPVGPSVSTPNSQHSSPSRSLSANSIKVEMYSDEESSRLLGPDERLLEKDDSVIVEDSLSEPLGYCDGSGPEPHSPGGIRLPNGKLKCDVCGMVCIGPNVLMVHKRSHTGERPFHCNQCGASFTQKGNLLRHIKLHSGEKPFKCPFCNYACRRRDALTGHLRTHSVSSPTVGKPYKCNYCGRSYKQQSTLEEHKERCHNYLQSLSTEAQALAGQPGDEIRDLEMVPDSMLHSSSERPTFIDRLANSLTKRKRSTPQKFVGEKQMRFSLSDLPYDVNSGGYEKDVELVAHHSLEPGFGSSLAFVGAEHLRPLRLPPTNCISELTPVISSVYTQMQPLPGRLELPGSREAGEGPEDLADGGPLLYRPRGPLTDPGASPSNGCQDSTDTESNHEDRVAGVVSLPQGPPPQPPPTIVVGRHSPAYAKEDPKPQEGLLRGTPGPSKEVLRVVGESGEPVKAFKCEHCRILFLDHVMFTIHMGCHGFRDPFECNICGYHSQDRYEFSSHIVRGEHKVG
It gave 113% for remaining protein (IKZF4; HEK293; 0.001372 µM, 6 h).
Zinc finger protein Aiolos (Homo sapiens, UniProt Q9UKT9); HEK293; 0.001524 µM — remaining protein: 90.8% and 88.9%.
The remaining protein was 118% (IKZF4; HEK293; 0.1111 µM, 6 h).
For Casein kinase I isoform alpha (CSNK1A1, Homo sapiens, UniProt P48729); HEK293 HiBiT-CK1α; 1.524 nM: remaining protein read 102% and 90%.

Block 2
SMILES: COc1cc(C(=O)OCCCN2CCCN(CCCOC(=O)c3cc(OC)c(OC)c(OC)c3)CC2)cc(OC)c1OC
von Frey, 0.4 g filament; mouse, CFA inflammatory pain; subcutaneous, 10 mg/kg, 3 h post-dose, first injection, day 1 — “paw withdrawal frequency”: 80% and 70% and 90% and 60%.
The “paw withdrawal frequency” was 70% and 90% and 80% (von Frey, 0.4 g filament; mouse, CFA inflammatory pain; intravenous, dose not given, 1 h post-dose, first injection, day 1).
For von Frey, 0.4 g filament; mouse, CFA inflammatory pain; subcutaneous, 10 mg/kg, 5 h post-dose, third injection, day 5: “paw withdrawal frequency” read 70% and 60% and 80%.
von Frey, 0.4 g filament; mouse, CFA inflammatory pain; subcutaneous, 10 mg/kg, 1 h post-dose, first injection, day 1 — “paw withdrawal frequency”: 60% and 70% and 80% and 90%.
It gave 90% and 70% and 60% and 80% for “paw withdrawal frequency” (von Frey, 0.4 g filament; mouse, CFA inflammatory pain; subcutaneous, 10 mg/kg, after CFA, before dosing).
For von Frey test; mouse, STZ diabetic neuropathy; subcutaneous, 30 mg/kg, second of three doses, 0 h: “paw withdrawal frequency” read 0.03 fraction of stimuli and 0.08 fraction of stimuli and 0.13 fraction of stimuli.

Block 3 — read-out: cell-free assay; technique: competition with immobilised ligand; concentration: 1 µM
SMILES: CO[C@@H](C)c1c(Nc2ccc([C@@H](N(C)C(=O)C3CCS(=O)(=O)CC3)C(F)(F)F)cc2)cnc2cc(Cl)nn12
It gave 100% for remaining binding (Casein kinase I isoform delta (CSNK1D, Homo sapiens, UniProt P48730)).
For Tyrosine-protein kinase Fes/Fps (FES, Homo sapiens, UniProt P07332): remaining binding read 100%.
For Activin receptor type-1-like (ACVRL1, Homo sapiens, UniProt P37023): remaining binding read 100%.
It gave 84% for remaining binding (Fibroblast growth factor receptor 2 (FGFR2, Homo sapiens, UniProt P21802)).
It gave 92% for remaining binding (5'-AMP-activated protein kinase catalytic subunit alpha-1 (PRKAA1, Homo sapiens, UniProt Q13131)).
RAC-alpha serine/threonine-protein kinase (AKT1, Homo sapiens, UniProt P31749) — remaining binding: 89%.
It gave 100% for remaining binding (Cyclin-dependent kinase 4, with cyclin D3 (CDK4, Homo sapiens, UniProt P11802)).

Block 4 — read-out: enzyme activity; action: inhibitor; concentration: 0.5 µM; reference: control
Target: Vascular endothelial growth factor receptor 3 (FLT4, Homo sapiens, UniProt P35916)
Chain of UniProt P35916 (whole entry, looked up): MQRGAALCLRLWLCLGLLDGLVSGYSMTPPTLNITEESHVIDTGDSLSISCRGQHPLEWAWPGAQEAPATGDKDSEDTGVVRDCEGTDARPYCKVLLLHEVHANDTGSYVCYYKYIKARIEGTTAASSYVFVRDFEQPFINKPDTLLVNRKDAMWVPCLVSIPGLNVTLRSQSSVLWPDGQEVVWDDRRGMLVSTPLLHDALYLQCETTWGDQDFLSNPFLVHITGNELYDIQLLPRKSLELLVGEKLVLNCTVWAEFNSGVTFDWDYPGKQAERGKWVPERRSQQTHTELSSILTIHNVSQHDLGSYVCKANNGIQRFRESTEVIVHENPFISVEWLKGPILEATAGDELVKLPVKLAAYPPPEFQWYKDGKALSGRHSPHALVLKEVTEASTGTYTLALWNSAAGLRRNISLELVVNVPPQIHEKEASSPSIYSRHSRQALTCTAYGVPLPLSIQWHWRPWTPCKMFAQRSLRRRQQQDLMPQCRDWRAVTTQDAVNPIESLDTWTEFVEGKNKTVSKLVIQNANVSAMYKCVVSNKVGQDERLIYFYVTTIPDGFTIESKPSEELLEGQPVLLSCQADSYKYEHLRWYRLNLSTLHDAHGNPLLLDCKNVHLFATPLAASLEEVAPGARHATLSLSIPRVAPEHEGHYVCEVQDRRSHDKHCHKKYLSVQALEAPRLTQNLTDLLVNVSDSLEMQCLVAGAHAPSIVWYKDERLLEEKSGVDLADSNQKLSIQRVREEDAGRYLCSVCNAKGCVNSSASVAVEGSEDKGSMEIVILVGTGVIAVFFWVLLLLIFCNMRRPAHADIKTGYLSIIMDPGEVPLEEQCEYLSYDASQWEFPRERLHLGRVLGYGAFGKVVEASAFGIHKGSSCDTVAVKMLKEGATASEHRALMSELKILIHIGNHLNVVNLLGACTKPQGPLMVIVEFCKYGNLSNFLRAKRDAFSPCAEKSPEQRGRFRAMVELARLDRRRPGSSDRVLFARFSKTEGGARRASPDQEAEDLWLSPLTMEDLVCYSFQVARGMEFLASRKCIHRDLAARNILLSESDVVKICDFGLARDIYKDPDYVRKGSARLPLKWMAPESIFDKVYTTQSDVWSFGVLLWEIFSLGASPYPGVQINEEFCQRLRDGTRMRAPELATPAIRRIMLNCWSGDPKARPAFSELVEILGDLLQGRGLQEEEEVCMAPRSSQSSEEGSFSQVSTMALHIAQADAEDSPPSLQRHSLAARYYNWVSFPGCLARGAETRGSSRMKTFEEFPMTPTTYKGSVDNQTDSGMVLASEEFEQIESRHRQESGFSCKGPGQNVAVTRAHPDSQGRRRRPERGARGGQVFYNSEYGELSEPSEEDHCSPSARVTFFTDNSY
`OCC(O)CCON=C1C(c2c(O)[nH]c3ccccc23)=Nc2ccccc21` (stereo not shown) gave a remaining activity of 22.3%.
The remaining activity of `CO[C@H]1C[C@@H]2CC[C@@H](C)[C@@](O)(O2)C(=O)C(=O)N2CCCC[C@H]2C(=O)O[C@H]([C@H](C)C[C@@H]2CC[C@@H](O)[C@H](OC)C2)CC(=O)[C@H](C)/C=C(\C)[C@@H](O)[C@@H](OC)C(=O)[C@H](C)C[C@H](C)/C=C/C=C/C=C/1C` is reported as 116%.
For `N#CC(C#N)=C(N)/C(C#N)=C/c1ccc(O)cc1`, the remaining activity was 95.9%.
The remaining activity of `COc1cc2ncnc(Nc3ccc(F)c(Cl)c3)c2cc1OCCCN1CCOCC1` is reported as 92.2%.
For `COc1ccc(C(=O)Nc2sc3c(c2C(N)=O)CCCC3)cc1OC`, the remaining activity was 110%.
`O=C1NC(=O)C(c2cn(CCCn3ccnc3)c3ccccc23)=C1Nc1ccccc1` gave a remaining activity of 95.8%.
`Nc1ccc2ncnc(NCCc3ccc(Oc4ccccc4)cc3)c2c1` has a remaining activity of 101%.
`COc1cc2ncnc(Nc3ccc(Oc4ccccc4)cc3)c2cc1OC` has a remaining activity of 62.5%.
For `Cc1cccc(-c2[nH]c(C(C)(C)C)nc2-c2ccc3c(c2)OCO3)n1`, the remaining activity was 99.8%.
`Cn1c2ccccc2c2c3c(c4c5ccccc5n(CCC#N)c4c21)CNC3=O` has a remaining activity of 38.2%.
`O=C(Nc1cccc(Nc2cc(Nc3cccc(C(F)(F)F)c3)ncn2)c1)C1CC1` gave a remaining activity of 107%.
For `Cc1ccc(NC(=O)c2ccc(CN3CCN(C)CC3)cc2)cc1Nc1nc(-c2cccnc2)cs1`, the remaining activity was 100%.
`NCCNc1ncc(C(N)=O)c(Nc2cccc(C(F)(F)F)c2)n1` gave a remaining activity of 82.7%.
With `Nc1[nH]nc2nc3ccccc3nc12` the remaining activity was 117%.

Some of these lines once more (block 4):
The remaining activity of `CO[C@H]1C[C@@H]2CC[C@@H](C)[C@@](O)(O2)C(=O)C(=O)N2CCCC[C@H]2C(=O)O[C@H]([C@H](C)C[C@@H]2CC[C@@H](O)[C@H](OC)C2)CC(=O)[C@H](C)/C=C(\C)[C@@H](O)[C@@H](OC)C(=O)[C@H](C)C[C@H](C)/C=C/C=C/C=C/1C` is reported as 116%.
For `N#CC(C#N)=C(N)/C(C#N)=C/c1ccc(O)cc1`, the remaining activity was 95.9%.
